# Measured values of several laboratories.
# Parts stem from different laboratories: compare values within a part only. Positions count from the first letter of the parent shown.

# Block 1 — target: CCND3, cyclin fold, Cln2 fusion (human); technique: yeast growth competition, sequencing; matrix: yeast; notes: weak parent motif; baseline: not given; direction: higher = stronger binding
# Starting sequence: viral docking peptide; KGVKRKLFAEDSS; partner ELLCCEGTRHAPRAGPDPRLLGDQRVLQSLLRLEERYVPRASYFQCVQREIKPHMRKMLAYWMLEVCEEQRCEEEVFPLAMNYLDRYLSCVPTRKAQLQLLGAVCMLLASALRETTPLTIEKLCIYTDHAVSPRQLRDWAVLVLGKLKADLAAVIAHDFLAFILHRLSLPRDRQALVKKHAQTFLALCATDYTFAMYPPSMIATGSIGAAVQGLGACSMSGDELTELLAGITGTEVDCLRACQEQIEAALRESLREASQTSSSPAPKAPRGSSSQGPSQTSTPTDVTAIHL
Variant,normalised enrichment score
S12H,-0.33
S12Q,-0.505
G2F,0.906
E10R,0.0423
G2Y,-0.304
A9T,0.0099
S12A,0.276
S12G,-0.133
K6F,-0.151
A9V,0.274
G2H,0.357
V3A,0.378
S12W,-0.00904
V3Q,-0.0839
S12C,0.265
D11Q,-0.465
R5K,0.516
E10H,0.0969
E10V,0.171
G2M,0.141
V3K,-0.0709
K6H,0.155
F8Y,0.17
V3N,0.454
A9R,0.567

# Block 2 — read-out: peptide-MHC binding; molecule type: peptide; concentration: concentration not given
# Target: HLA class I histocompatibility antigen, A alpha chain, allele A*25:01 (Homo sapiens, UniProt P04439)
Molecule,binding
GAWCYDYTV,inactive
DPPEPLVRI,inactive
NSTHNTPVY,inactive
VFTSRIQVI,inactive
SLLFREVWK,inactive
GQFLSFASL,inactive
MHGHGKHIL,inactive
SGLPGIFIV,inactive
EYAPFARLL,inactive

# Block 3 — technique: DHFR PCA, deep sequencing; matrix: yeast; with: (+)-ABA 58 µM; baseline: wild-type fitted maximum; direction: higher = stronger binding
# Target: ABI1, truncated, D143A, DHFR fusion (Arabidopsis thaliana)
# Notes: methotrexate growth selection, single substitutions
# Starting sequence: PYL1, truncated, DHFR fusion (Arabidopsis thaliana); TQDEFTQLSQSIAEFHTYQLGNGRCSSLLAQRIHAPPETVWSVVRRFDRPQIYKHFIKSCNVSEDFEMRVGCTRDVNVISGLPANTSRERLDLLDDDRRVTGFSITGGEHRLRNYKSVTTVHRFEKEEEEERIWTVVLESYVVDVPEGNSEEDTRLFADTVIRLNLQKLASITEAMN; partner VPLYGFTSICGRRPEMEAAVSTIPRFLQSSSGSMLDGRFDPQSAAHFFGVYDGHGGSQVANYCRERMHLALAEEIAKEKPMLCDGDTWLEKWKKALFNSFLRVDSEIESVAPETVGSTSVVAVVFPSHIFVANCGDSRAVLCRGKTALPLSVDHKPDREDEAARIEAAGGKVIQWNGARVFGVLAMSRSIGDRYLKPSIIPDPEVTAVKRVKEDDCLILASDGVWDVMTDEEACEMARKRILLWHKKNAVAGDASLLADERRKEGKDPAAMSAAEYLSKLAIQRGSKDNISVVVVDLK
Variant,relative binding score [%]
T17I,55.1
T154H,-2.68
I133S,98.2
T120L,-8.96
D48I,-12
K54Y,0.656
E129M,88
L28T,64.5

# Block 4 — target: UBE2D4 UBC core domain (UniProt Q9Y2X8); technique: yeast two-hybrid; matrix: yeast; notes: mostly zero background; baseline: not given; direction: higher = stronger interaction
# B1: RNF31 RING domain (UniProt Q96EP0); chain AFLRRLLAQECAVCGWALPHNRMQALTSCECTICPDCFRQHFTIALKEKHITDMVCPACGRPDLTDDTQLL
# B2: TRIM31 RING domain (UniProt Q9BZY9); chain FVNKLQEEVICPICLDILQKPVTIDCGHNFCLKCITQIGETSCGFFKCPLCKTSVRKNAIRF
# B3: RNF122 RING domain (UniProt Q9H9V4); chain AKKLQLYGQTCAVCLEDFKGKDELGVLPCQHAFHRKCLVKWLEVRCVCPMCNKPIASPSEAT
# B4: RLIM RING domain (UniProt Q9NVW2); chain SFGENDALKTCSVCITEYTEGNKLRKLPCSHEYHVHCIDRWLSENSTCPICRRAVLASGNRE
# B5: DEF8 RING domain (UniProt Q6ZN54); chain AGRLGCSLTEIHTLFAKHIKLDCERCQAKGFVCELCREGDVLFPFDSHTSVCADCSAVFHRDCYYDNSTTCPKCARLSLRK
# Construct (chain): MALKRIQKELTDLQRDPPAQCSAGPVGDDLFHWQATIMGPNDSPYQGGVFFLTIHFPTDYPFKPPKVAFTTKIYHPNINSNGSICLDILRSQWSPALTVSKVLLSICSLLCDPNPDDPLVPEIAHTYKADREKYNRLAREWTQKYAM
Molecule,lacZ reporter activity
B1 (RNF31 RING domain),0
MNDVLENELQCIICSEYFIEAVTLNCAHSFCSYCINEWMKRKIECPICRKDIKSKTYSL (RNF8 RING domain (UniProt O76064)),0
B2 (TRIM31 RING domain),0
B3 (RNF122 RING domain),0
FVKTVEDKYKCEKCHLVLCSPKQTECGHRFCESCMAALLSSSSPKCTACQESIVKDKVF (TRAF3 RING domain (UniProt Q13114)),0
B4 (RLIM RING domain),0
AEADPLGRFTCPVCLEVYEKPVQVPCGHVFCSACLQECLKPKKPVCGVCRSALAPGVRAV (RNF114 RING domain (UniProt Q9Y508)),0
B5 (DEF8 RING domain),0

# Some of these lines once more (block 1):
Variant,normalised enrichment score
S12G,-0.133
K6F,-0.151
A9V,0.274
G2H,0.357
V3A,0.378
S12W,-0.00904
